Published values of several laboratories.
Every numbered part comes from another study and shows a few of its results, in no order.

Set 1
Target: RNA binding protein fox-1 homolog 2, RRM domain, GST-SBP tag (RBFOX2, Homo sapiens, UniProt O43251-10, residues 100-194)
Method: RNA Bind-n-Seq
Molecule type: RNA
Matrix: in vitro
Concentration: 365 nM
Setting: natural RNA segment, single round, ends assumed
Baseline: no-protein control
Reading: higher = stronger binding
Target sequence (chain): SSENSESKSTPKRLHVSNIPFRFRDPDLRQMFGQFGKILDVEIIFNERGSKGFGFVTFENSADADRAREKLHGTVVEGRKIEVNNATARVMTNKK
Sequence	RBNS enrichment (R)
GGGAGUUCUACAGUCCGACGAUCACUUCUGUACCUUUGCACAAACUCUACCCUCUGACCCUCCACUACCAUCAUACUGACACUCUUUUCCUUUAGGAAACCCUCACUGACUGACCUAGGGAGCCCUACGAAGUUGGAAUUCUCGGGUGCCAA	0.892
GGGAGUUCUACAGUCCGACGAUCUUGACCUUUUCAAUUUUUUUAAAGUUAUUUUUGAGACAGAGCCUCAUGUAGCCCAGGCUGGCCUUGAGCUCUGUAUGUAUCUGAGGCUAGUCCUGAAUUCCUAACUCUCCUGGAAUUCUCGGGUGCCAA	0.674
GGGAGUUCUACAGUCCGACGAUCGGAGCAGGAGGAAGUCCACUUCUGUACCGGCAGACAGAGCAUGUGAACACAAAACACAUUUCUAUGGCAUAGUCAACUGAACUUCAUUUUUACAUUUAAUCUAACAUGUUUGGAAUUCUCGGGUGCCAA	0.493
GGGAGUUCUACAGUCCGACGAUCACAGUGCCUGUCCACCCACCCUGCGUGUCACUGUGGCGGCCUGGCUGUCGCUGCUUUUUGUCCUCUGCCGUGUUUGCGCGGCCUCAGUGCCCUCCCUGGUGCGUCUGCGCUGGAAUUCUCGGGUGCCAA	0.363
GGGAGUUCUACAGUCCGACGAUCUCCCACUUGAAUGUGACACUGAUAAUAAUUAUGCUGAUUUUUAGCAUCUCUUAUAGGAAUCAAAGUUUAUUAAAGUUACAUAGAGGAUUGAAAAAUGUAUAUCACUCAAUUGGAAUUCUCGGGUGCCAA	55.4
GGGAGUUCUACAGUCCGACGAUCAGCUAAUGUGUACAGGUGUCCUGGAGCCCCAGCUUGCUGCCUGGGGUCUUCGGGGGGAGGGGGGCUUUUGAGUGGGUGUUGCCUACAGAGAAGCUGCCUCUGUAGAGUGGUGGAAUUCUCGGGUGCCAA	0.517
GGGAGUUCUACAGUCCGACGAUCCAUGCUCUGAGUCAGAACACACCAACGCUCUGCUGUGGCUCCUAGGGAAGCAUUCAUGGUCCUCUGUUAUCAGCAGGGGUUUAUGUCACUUGCUGUCCGGUUUCCUAGGGUGGAAUUCUCGGGUGCCAA	0.326
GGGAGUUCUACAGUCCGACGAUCUUUUGUAGUUGAUUUUUCCAAGAGCGUCGAAGACUCUCUUUCUCUUGGUUCACCUUGCCUGUCGCUAGCAAGCAUCUGGUUCAGCGGAAAUGGGAUGUGAGAAUGAUGAAUGGAAUUCUCGGGUGCCAA	4.66
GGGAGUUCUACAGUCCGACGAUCUGUAUCAGUUGAGUCAGCUUGGUGGCUCCCUGUGGAGCCAGGGCUGAGCCUUGUCACGCGCACUCGCCAAUUAAGAGAUGGACCAGCCAGCAGUCAAGUGCAUUCUCCAGUGGAAUUCUCGGGUGCCAA	0.266
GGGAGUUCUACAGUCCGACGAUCACCUCGAUAGGGUAGGUAGAUUCCUAAUAGUGCUGGUGAGCAUCACAAUGCUGUGCAAAGAUUCAAGAGGAGGCAGUCACUGUACUUUGCCUGCUUUUGGGCCUAGAUAAUGGAAUUCUCGGGUGCCAA	0.307
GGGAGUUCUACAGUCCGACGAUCUGGGGGGAGGAUCCUACGCAGGGGGGACUUGGUGCGUAUAUUAAGGGCUAUAUUUUUCUAGCAUUUGACCUACUUGCGACUUGAUACAGAUUGCAUAGCCUGAAAGAGGCUGGAAUUCUCGGGUGCCAA	0.942
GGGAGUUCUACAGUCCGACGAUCGAAAAUGGAGAGCUAUGUAACAGAUACACUACAGUAGAAGAACUUACUUCUGAAAUGAAGGGAAAAAAACCACCCCAUCGUUCCCUACUCCUCCCCACCACUUACCCGUUUGGAAUUCUCGGGUGCCAA	0.466

Set 2
Target: PABPC1L2, full length, GST fusion (mouse, UniProt A0ABA7IW68)
Method: RNAcompete
Molecule type: RNA
Matrix: in vitro
Concentration: 20 nM
Setting: 7-mer, probes averaged, single round
Baseline: mean of 7-mers
Reading: higher = stronger binding
Construct (chain): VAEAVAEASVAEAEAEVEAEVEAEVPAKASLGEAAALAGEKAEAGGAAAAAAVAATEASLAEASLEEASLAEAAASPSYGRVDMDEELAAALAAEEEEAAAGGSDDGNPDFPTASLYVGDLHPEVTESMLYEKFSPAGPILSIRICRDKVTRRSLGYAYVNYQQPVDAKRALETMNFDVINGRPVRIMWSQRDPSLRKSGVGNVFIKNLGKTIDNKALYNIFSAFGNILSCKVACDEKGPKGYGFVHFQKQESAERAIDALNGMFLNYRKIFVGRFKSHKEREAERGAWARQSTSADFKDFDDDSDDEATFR
Sequence	7-mer Z-score
UUGUCCU	-0.421
AGGUCCA	-0.146
UUUCAGG	-0.282
GCAUAUU	-0.0917
CCAUUCA	-0.295
GCCCCGA	-0.222
CUUAUUC	-0.307
GAAACAA	2.53
UCUCGAA	-0.0355
GUAUGCG	-0.0971
GGAUUUG	-0.206
UGAAACA	0.512
AGUGCCU	-0.242
GUCGUAG	-0.36
GGCGGUG	0.109
CGAGGCC	-0.213
GAAUUCU	-0.32
CAGAGUC	-0.162
CGAAGUG	-0.106
CGUAUCC	-0.371
CGGGAAG	-0.0428
CCGUCAG	-0.313
UUGGUUG	-0.251
CCCUAGU	-0.387
CACAAGU	-0.161

Set 3
Target: Interferon regulatory factor 7, full length, phosphomimetic (IRF7, Homo sapiens, UniProt Q92985, residues 1-503, S471D/S472D/S475D/S476D/S477D/S483D/S484D/S487D)
UniProt Q92985, sequence (whole entry, unmodified, looked up): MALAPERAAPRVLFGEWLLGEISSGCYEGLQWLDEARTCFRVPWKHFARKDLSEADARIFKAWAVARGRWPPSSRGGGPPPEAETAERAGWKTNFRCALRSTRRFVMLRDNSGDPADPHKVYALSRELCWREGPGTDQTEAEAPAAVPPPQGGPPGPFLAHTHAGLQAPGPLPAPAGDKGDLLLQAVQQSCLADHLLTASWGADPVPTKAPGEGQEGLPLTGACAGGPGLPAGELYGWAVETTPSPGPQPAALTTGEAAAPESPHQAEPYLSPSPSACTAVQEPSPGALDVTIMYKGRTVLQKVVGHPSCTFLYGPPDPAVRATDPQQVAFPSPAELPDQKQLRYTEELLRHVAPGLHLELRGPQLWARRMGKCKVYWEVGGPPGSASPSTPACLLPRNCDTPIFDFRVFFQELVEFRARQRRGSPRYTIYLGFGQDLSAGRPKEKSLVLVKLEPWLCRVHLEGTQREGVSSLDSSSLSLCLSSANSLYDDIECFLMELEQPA
Method: protein-binding microarray
Molecule type: double-stranded DNA, one strand shown
Matrix: in vitro
Concentration: 2200 nM top
Setting: 60-bp whole probe
Together with: salmon DNA 0.4 mg/ml
Baseline: random background probes
Reading: higher = stronger binding
All sequences stand within: GCCTAGCAC … GTCTTGATTCGCTTGACGCTGCTG
Sequence	fitted relative affinity [z-score]
TCAGAAATTTCTTTCTAACTGTGCTAG	0.349
TTAGATATCCGACTGGATTAGTGCTAG	-0.157
GACAGACTGGGTATCGGGACGTGCTAG	-0.524
GCTTCCTCACCTGATGCCTCGTGCTAG	1.69
GACGGGATCCTTATCCTGACGTGCTAG	0.462
AAGTTTACCCATCTCCAGTAGTGCTAG	1.33
GACGGTCTTCTACTGCTGACGTGCTAG	0.435
TTCTTTACCACATTCTCTGCGTGCTAG	1.69
TTAGGTTTCGGATTGGGTTAGTGCTAG	8.26
CACATTCTCTGCTTGGGTCTGTGCTAG	1.99
GACGAACTGGGGTATCGACACGTGCTA	0.0385
TTAGGTCTCGAACTGGGTTAGTGCTAG	-0.0896
TTAGATATCAATCTCGATTAGTGCTAG	-0.183
GACGGTTGCGGGTATCGGGACGTGCTA	-0.00664
AGTAATGACCTTCTCAGGAGGTGCTAG	-0.0557
GACGATCTCAGGATCGAGACGTGCTAG	-0.0411
TACGAACTGGGGACTGGAGACGTGCTA	-0.288
TTAGAACTGGCGTTTCGATTAGTGCTA	0.921
TTAGGACTGGGTCTTGGTTAGTGCTAG	-0.475
GACGATATCATTATCGAGACGTGCTAG	0.332
TTAGGTTTCGGTTATCGGTTAGTGCTA	7.75
GAGGGTTTCCTTATCCTGACGTGCTAG	1.28
GACGGTTTCGGTCTCGGGAAGTGCTAG	6.58
GACGGTTTCGCGACTGGGGACGTGCTA	1.57
GACGATTTCGGGTTTCGGGACGTGCTA	5.35

Set 4
Target: Histone acetyltransferase KAT6A, winged helix 2, GST fusion (KAT6A, Homo sapiens, UniProt Q92794, residues 85-181)
Method: protein binding microarray
Molecule type: double-stranded DNA, one strand shown
Matrix: in vitro
Concentration: not given
Setting: 8-mer, flanks averaged, mean of 2 arrays, mostly near background
Baseline: not given
Reading: higher = stronger binding
Construct (chain): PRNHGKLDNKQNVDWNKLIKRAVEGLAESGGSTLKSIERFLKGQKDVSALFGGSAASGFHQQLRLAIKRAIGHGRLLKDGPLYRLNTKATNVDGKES
Sequence	E-score
ATCCATCG	-0.18
CGATCTCC	0.0552
AGCATACA	0.17
ACTTATCG	-0.211
AGCTGGCC	-0.00707
CGTAGCGA	-0.0544
ACATTCAG	-0.285
CGTTACAG	-0.0396
CCAATTTA	0.0655
GGTTGATA	0.167
GAGACACA	-0.0613
AATTACAA	-0.179
GCAGTCCC	0.0253
GGTGGGGA	0.181
ACGTCTGC	-0.126
GGCACGAA	0.159
GTTCGCAA	0.173
AAGATGGG	-0.11
CTGGAGTA	-0.114
AAAATACG	-0.107
ACATGTCA	-0.177
AAGGCATC	-0.11
ACACCAAT	-0.137

Set 5
Target: RING finger protein unkempt homolog, zinc fingers 1-6, GST-SBP tag (UNK, Homo sapiens, UniProt Q9C0B0, residues 30-357)
UniProt Q9C0B0, sequence (30-357, looked up): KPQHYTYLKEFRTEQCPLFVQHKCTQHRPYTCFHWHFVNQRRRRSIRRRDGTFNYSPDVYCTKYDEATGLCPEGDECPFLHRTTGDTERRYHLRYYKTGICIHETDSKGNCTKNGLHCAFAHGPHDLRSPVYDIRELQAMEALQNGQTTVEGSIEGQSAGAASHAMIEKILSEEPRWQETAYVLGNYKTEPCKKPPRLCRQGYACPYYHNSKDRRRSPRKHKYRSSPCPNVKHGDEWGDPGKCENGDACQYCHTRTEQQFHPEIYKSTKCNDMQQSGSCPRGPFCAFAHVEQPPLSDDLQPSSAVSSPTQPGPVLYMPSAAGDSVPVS
Method: RNA Bind-n-Seq
Molecule type: RNA
Matrix: in vitro
Concentration: not given
Setting: RNA with constant flanks, human and mouse sites, ends assumed
Baseline: input RNA pool
Reading: higher = stronger binding
Sequence	bound/input enrichment
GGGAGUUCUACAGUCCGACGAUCUUCUUAAUUUUUCUUUCUUACAAAAACUGAUUUUUCCCAUAAAUAUUUUUACUUCAGAGGACUAGGACCAUUUUGUUUUGGGCCCUUCUGCUGAAAAUUUGUCUCGUUUAAGAGGCAGCUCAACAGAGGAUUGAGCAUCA	3.85 ratio
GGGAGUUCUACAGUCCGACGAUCAUGAACCUGCAGAUAGUGGACAGAGCCAUUCAGGUAGUCCGAAGUGCGUUGGCCAACCAGAUAGACUGGACAGAAAUCGGAGUGAUUGUGAAAGAAGCUCAAGCUCAAGGAGACCCGGUUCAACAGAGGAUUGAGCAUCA	0.171 ratio
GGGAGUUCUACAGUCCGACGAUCACCUUGUUUAAUGCAGAAAGAGACCUUGAAAGGUCAGUCAUGAAAUCUGGUUUGAUUAUUAAUAGCUAUCUUUUAGGAAGAAGCUUUUUCCCUAUGUACGAUGUCAUACUGCAGACUUAACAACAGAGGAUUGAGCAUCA	13.4 ratio
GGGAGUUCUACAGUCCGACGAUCGCAGAACUCCUAAAAAAUGCAGAUGAAUUAGUCAAACAGAAAAUUCAUCCCACAUCAGUUAUUAGUGGCUAUCGACUUGCUUGCAAGGAAGCAGUGCGUUAUAUCAAUGAAAACCUAAUUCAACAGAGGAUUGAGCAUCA	0.172 ratio
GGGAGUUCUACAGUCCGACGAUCUUUUGUUUCCAGGGACAAAUUAAAUUUGCAUGAUUGUCCAAAAAGAGUCUCGAUUUACAGAUGUUAACUCUAUAUAAAGGAAUGUAGAAAAAUUGAAAUCUUAAGGUACACGACUAAGCACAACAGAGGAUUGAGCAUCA	0.439 ratio
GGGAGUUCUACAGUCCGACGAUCGCAAAGUUUGUGAGUGGUGAGGAAAUUGUCUCUGCCUCAACAGACAGUCAGCUAAAACUGUGGAAUGUAGGGAAACCAUACUGCCUACGUUCCUUCAAGGGUCAUAUCAAUGAAAAAAACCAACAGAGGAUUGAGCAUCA	0.175 ratio
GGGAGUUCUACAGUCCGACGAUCCAGCCGCUCAUGUACGUGAAAGUGCUCAUCCAGGUGGGAUAUGAGCCUCUUCCUCCAACAAUAGGACGAAAUAUUUUUGGGCGACAAGUAUGUCAGCUUCCUGGCCUCUUUUGCUAUGCUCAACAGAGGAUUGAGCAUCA	0.689 ratio
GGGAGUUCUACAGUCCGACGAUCGUGACACAGCAGCUUCACCAGAGCAUUUCCAACACCACAGACACACACACGCACGCACACACACAAACACACAUGCACACACACACAUCUCAUUUCUCUAGUGUCUUUUGCCUUUAAAAACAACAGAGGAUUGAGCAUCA	1.09 ratio
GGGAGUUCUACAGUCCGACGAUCAAGCAGAAGCUGAUGCUGAAAGAGAGCAAUUUUGCUGACAGUUAUUAUGACUACAUUUGUAUUAUUGACUUUGAAGCCACUUGUGAAGAAGGAAACCCACCUGAGUUUGUACAUGAAAUACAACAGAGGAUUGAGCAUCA	0.149 ratio
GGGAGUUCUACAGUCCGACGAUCCCACGGAUGUUCAAUAUCAUCUCAGAUUCUCCAUCUCCUAUUGCUGCAAGAACACUGAUAUUAGUGGCUAAAUCUGUGCAGAACUUAGCAAAUCUUGUGGAAUUUGGAGCUAAGGAGCCCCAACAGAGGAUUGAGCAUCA	0.187 ratio
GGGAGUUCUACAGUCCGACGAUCUCUACGUCUUCAUCUAUGCAGCCAGGCCCUGUGUCAAAUCAGUCACUUUUAUCAGAAUCUGUAGCACCUUCCCAAGUGGACAGUACAUCUGUGGACAAAGCAGUAUCUGAGACAGAAGACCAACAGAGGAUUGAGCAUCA	0.372 ratio

Repeated from above (set 2):
Sequence	7-mer Z-score
GUAUGCG	-0.0971
GGAUUUG	-0.206
UGAAACA	0.512
AGUGCCU	-0.242
GUCGUAG	-0.36
GGCGGUG	0.109
CGAGGCC	-0.213
GAAUUCU	-0.32
CAGAGUC	-0.162
CGAAGUG	-0.106
CGUAUCC	-0.371
CGGGAAG	-0.0428
CCGUCAG	-0.313
UUGGUUG	-0.251
